Experimental data from different studies.
Numbered parts are unrelated; each lists some results of a single study.

Study 1
Target: Sal-like protein 4, full length isoform A (SALL4, Homo sapiens, UniProt Q9UJQ4, residues 1-1053)
Chain of UniProt Q9UJQ4 (whole entry, looked up): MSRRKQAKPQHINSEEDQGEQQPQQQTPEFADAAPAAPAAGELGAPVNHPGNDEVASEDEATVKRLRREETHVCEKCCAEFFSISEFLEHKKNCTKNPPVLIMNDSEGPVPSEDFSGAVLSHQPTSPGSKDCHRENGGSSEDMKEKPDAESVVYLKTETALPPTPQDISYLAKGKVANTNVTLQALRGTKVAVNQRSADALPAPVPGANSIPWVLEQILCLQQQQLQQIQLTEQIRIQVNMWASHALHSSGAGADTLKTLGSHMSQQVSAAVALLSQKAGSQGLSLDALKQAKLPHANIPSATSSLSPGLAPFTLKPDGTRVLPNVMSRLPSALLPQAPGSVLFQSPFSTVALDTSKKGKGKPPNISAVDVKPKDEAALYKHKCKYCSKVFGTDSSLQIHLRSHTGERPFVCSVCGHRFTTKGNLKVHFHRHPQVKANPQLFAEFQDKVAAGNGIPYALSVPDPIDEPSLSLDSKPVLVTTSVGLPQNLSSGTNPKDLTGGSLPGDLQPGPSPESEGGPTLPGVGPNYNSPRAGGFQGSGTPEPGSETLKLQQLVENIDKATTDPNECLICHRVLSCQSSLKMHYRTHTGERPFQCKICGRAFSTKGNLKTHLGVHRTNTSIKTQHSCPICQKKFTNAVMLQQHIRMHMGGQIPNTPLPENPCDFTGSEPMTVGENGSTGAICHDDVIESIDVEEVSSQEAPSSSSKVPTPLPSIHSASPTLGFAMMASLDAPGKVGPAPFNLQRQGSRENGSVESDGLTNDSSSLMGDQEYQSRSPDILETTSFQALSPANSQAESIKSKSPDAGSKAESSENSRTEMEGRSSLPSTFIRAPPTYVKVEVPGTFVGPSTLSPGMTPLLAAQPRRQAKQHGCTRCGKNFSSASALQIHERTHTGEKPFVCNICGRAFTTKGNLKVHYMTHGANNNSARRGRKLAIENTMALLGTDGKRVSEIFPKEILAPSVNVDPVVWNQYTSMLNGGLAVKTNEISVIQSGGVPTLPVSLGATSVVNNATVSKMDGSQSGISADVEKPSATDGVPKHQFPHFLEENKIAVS
Technique: universal PBM
Form: double-stranded DNA, one strand shown
Matrix: in vitro
Concentration: 600 nM
Setting: 8-mer, flanks averaged, mean of replicates
Reading: higher = stronger binding
Sequence | E-score
CGTCCACG | -0.235
ATCGACAG | 0.0479
GCTTGATA | 0.222
TGTAGACA | 0.155
TCTGCTAA | 0.0362
ACGCCCAA | -0.105
CTCACAAG | -0.0586
CTAACCTC | -0.0339
GCCATACA | 0.0393
GCACAGAC | 0.0434
CAGGGTTA | -0.166
ATGACACA | 0.184
ACAAAAGA | 0.205
ACAGTGTC | -0.163
AACGTGCC | -0.256
ATACGAGC | 0.176
GGACCGTA | -0.199
ACTTAAAG | 0.0866
ACCGTCCC | -0.233
GCCTGCAA | -0.11
AAATGTCC | 0.183
CCAGTGTA | 0.0397
TCGGACGA | -0.105
CGGATTCA | 0.0331
CCCTGCCC | -0.277

Study 2
Target: Ras GTPase-activating protein-binding protein 1, C-terminal RGG region (G3BP1, Homo sapiens, UniProt Q13283)
Chain of UniProt Q13283 (whole entry, looked up): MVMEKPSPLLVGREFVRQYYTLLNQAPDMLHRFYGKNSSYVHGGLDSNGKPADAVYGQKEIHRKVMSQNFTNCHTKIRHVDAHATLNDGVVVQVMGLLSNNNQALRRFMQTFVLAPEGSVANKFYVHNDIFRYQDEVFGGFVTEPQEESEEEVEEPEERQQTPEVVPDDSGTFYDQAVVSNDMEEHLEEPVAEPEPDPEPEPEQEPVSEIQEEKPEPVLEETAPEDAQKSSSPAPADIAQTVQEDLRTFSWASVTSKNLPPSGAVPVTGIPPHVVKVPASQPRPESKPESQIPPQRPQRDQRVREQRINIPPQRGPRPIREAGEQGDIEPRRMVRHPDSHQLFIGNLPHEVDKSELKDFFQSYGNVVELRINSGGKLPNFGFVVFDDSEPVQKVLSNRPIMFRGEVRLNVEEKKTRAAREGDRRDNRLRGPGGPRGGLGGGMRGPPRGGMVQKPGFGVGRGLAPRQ
Technique: RNA Bind-n-Seq
Form: RNA
Matrix: in vitro
Concentration: 1 µM
Setting: whole 134-nt RNA, ends assumed
With: 150 mM KCl
Reference: input library
Reading: higher = stronger binding
Sequence | log2 enrichment
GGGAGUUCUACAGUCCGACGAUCAGUCCUGUGCUACACAUCGUAUGUACCGAAUCGGGAAAGGGAAAAAGGGAAAAAGGGAAAGUAUUAUGUUACGCCGUUCGGAUCUGCACUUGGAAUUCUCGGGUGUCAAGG | 0.297
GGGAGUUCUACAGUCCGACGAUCCAAGUCCUGUGCUACACAUCGUAUGUACCGAAUCGGGUUUGGGGUUUGGGGUUUGGAAAGUAUUAUGUUACGCCGUUCGGAUCUGCACUUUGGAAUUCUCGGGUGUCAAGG | -1.02
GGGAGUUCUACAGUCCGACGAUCUGCCUGGCCCAGUGCUGGGUUUGCCUUGUUGACGAUGCGCUUGGAUUGUUAAGGACACCGAUGUUCAGAACCCGGGAAGAGUCAUCUUAAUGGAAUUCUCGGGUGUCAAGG | -2.49
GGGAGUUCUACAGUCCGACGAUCCCUCAAGUCCUGUGCUACACAUCGUAUGUACCGAAUCGGAAGGGAAGGAAGGAAAGUAUUAUGUUACGCCGUUCGGAUCUGCACUUCCAGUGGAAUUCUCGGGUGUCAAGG | -1.13
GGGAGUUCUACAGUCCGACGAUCCAAGUCCUGUGCUACACAUCGUAUGUACCGAAUCGGUUUUUUUGGAAAGGAAAGGAAAGUAUUAUGUUACGCCGUUCGGAUCUGCACUUCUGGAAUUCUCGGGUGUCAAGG | -1.84
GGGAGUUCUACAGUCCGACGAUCUCCUGUGCUACACAUCGUAUGUACCGAAUCGGAAAAAAGGGAAAAAAGGGGAAAAAAGGGAAAGUAUUAUGUUACGCCGUUCGGAUCUGCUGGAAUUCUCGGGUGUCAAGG | -1.31
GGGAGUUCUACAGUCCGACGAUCUCAAGUCCUGUGCUACACAUCGUAUGUACCGAAUCGGGCCGGGGCCGGGCCGGGAAAGUAUUAUGUUACGCCGUUCGGAUCUGCACUUCCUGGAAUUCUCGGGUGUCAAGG | -0.119
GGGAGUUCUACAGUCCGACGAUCCUGUGCUACACAUCGUAUGUACCGAAUCAAACCCCCCCAAAUUUUUUUAAACCCCCCCAAAAAAGUAUUAUGUUACGCCGUUCGGAUCUGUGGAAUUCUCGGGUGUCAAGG | 0.975
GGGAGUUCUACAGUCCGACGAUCGUCCUGUGCUACACAUCGUAUGUACCGAAUCGGGUUUUUUUGGGAAAGGGAAAAAGGGAAAGUAUUAUGUUACGCCGUUCGGAUCUGCACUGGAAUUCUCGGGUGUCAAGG | -0.695
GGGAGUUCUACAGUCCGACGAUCUGUGCUACACAUCGUAUGUACCGAAUCGGGGCCCCCCCGGGGCCCCCCCGGGCCCCCCCGGGAAAGUAUUAUGUUACGCCGUUCGGAUCUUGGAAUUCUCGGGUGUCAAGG | -2.43
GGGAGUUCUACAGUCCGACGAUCAAGUCCUGUGCUACACAUCGUAUGUACCGAAUCGGAGGUUUUUUUGGUUUUUUUGGAAAGUAUUAUGUUACGCCGUUCGGAUCUGCACUUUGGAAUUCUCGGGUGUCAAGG | -2.08
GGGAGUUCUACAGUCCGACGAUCUCAACAAGAGAUGUUCAAGAACUUUUGACACAAUAUACCAAGUUUGCACAGAUGGUAAAAAAGAUGGGAGGUAUCAAAGGACUUUUCAAAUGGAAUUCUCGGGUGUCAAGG | -0.962
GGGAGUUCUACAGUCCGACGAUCUGGCCCUGGUGGCAUGCGGGGAGGAAGAGGUGGCCUCAUGGAUCGUGGUGGUCCCGGUGGAAUGUUCAGAGGUGGCCGUGGUGGAGACUGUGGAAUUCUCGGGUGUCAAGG | 3.22
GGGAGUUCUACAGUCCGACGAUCCCUCAAGUCCUGUGCUACACAUCGUAUGUACCGAAUCGGGGCGGCGGCGGGGAAAGUAUUAUGUUACGCCGUUCGGAUCUGCACUUCCAGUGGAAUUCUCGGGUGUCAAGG | -1.08

Study 3
Target: RNA binding protein fox-1 homolog 2, RRM domain, GST-SBP tag (RBFOX2, Homo sapiens, UniProt O43251-10, residues 100-194)
Technique: RNA Bind-n-Seq
Form: RNA
Matrix: in vitro
Concentration: 365 nM
Setting: natural RNA segment, single round, ends assumed
Reference: no-protein control
Reading: higher = stronger binding
Construct (chain): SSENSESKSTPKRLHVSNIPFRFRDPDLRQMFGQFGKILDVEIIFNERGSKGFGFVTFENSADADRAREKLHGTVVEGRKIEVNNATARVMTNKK
Sequence | RBNS enrichment (R)
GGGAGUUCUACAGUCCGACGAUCGGGGCAAUUCUCCCUAGUGCCUCUGCACCAGACACCACAAAACCUCAGCCAUGCUGCCGCCGAAGGGUGGCCCCCUCACCGAAUCUCCUUAGGAAGGGUUUUAUACAGACUGGAAUUCUCGGGUGCCAA | 0.45
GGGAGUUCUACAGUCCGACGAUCGUUAUGUACCAUAAUGCUAAAUAAAACUGUGGCACUUUUCACCAUAAUUUAAUUUAGUGGAAAAAGAAGACAAUGCUUUCCAUAUUGUGAUAAGGUAACAUGGGGUUUUUUGGAAUUCUCGGGUGCCAA | 0.365
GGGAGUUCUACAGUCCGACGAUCACCACUUUUAUUCAAAAGUACUUUUAACAUACCAAUACAUAGUCUGUCUGAUGGGAGUAUAAAUUGGACAGUAAGGUUUUGUCUUAAUAAAAUGAAAUUUGUUUCUCAUGUGGAAUUCUCGGGUGCCAA | 0.566
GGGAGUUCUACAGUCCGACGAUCCCCCACCAAAGGGAAGCAGAGAAGCCCCUGGCCAUGCACAUUGAGUAUGAUGAGCAAAAGGCCAGAACUCCAGUGUCCUGUGAGAUUGGCUGACCCGAGCGAGGUAUUAUUGGAAUUCUCGGGUGCCAA | 0.482
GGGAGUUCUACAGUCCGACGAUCCUACAGCCUUUCUACAUUCUGACAUGCUAACAGUGGUUUAAGUUUCUAAAGUGUUUACCAGAUGCUGAAGGCAAGGGGAGGGAGCAGAAGCACUUAUGUUUACGGAUAUUUGGAAUUCUCGGGUGCCAA | 0.553
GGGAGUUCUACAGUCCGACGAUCAAGGCAGCGGGGAGCAGACAAAGAUGAGGUCUACACUGUCCUUCAUGGGGAUUAAAGCUAUGGUUAUAUUAGCACCAAACUUCUACAAACCAAGCUCAGGGCCCCAACCCUGGAAUUCUCGGGUGCCAA | 0.395
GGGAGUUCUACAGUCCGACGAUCGGCUGUGGCCUGCUGCCUGCUCAUGAUGAGUGGCCUCUGUUGACUUGUUUCUGGUUCACGUGGGGCCACCUGAAUCCGUGUCUGUGAGCAUUGACGCUUGAGUGAGCACGUGGAAUUCUCGGGUGCCAA | 2.68
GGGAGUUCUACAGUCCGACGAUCCACAUCCUAGACCCAGUUCCAUAUACACUUCUUCAUCCCAAUACACAGGAAACAUGGAUAAGGAAGUUGGCAGAAGUCCAACUGUUUCCCAAUCAGUCAAAGGCAGCAAGUGGAAUUCUCGGGUGCCAA | 0.424
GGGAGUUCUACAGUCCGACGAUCACUAUCCAUUUUGUAAAACGGAUUUAAGGACAAUUAUCAGGUAUAAUUAAAAUUCUGUUGAAGAAGAUAAAGUUUCAGAUAUGCCACUGGCUUGAGGAUUAGCUAAAGGUUGGAAUUCUCGGGUGCCAA | 0.51
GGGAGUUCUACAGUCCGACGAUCAAAGUACUUUGUUAUAAAGUCUUGAUUUCAUCAUAAUUUGUUACAUUUGUCUAUAUUUCCUACGGUGCAUCUAUAAAGAGUGCACACACCUAUGGGAAACCUAGGUUUCAUGGAAUUCUCGGGUGCCAA | 0.478
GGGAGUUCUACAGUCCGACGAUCUGUGGCCCUUCCCCAGAGGAAUUGUGGAGACUGUCCCAUGGAACAAACCCUCAGGCACCAGCACAGGGCUCUGGGUGACUCAGUAAAACUAACGUUUGUCUCUGACAAGAUGGAAUUCUCGGGUGCCAA | 0.29
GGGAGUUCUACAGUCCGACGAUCUCUGACUUAGGCAUGUGUAGAUGGGUCCUUAGAUUCGUCCCGAGGAAGAGACUGCAAAGACACAUGAAGAUUUCUGAUCCUAAAAUGCUGUUUUGUUUACUUCCUGUCAAUGGAAUUCUCGGGUGCCAA | 3.49

Study 4
Target: Histone acetyltransferase KAT6A, both winged helices, GST fusion (KAT6A, Homo sapiens, UniProt Q92794, residues 1-181)
Technique: protein binding microarray
Form: double-stranded DNA, one strand shown
Matrix: in vitro
Concentration: not given
Setting: 8-mer, flanks averaged, mean of 2 arrays, mostly near background
Reference: not given
Reading: higher = stronger binding
Target sequence (chain): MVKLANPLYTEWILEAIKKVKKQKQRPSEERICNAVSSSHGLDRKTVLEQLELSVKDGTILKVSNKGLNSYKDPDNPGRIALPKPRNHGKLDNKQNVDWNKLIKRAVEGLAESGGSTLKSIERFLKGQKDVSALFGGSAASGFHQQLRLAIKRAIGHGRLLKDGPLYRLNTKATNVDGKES
Sequence | E-score
ATAGCATC | -0.106
CCAAGGAA | -0.0387
CATCGCTA | -0.0111
CTGTGTAC | 0.101
CCTCTCGC | -0.0323
AGATTCAC | -0.191
CGGAAGTC | 0.283
AGACTCCC | -0.143
AAAACTAA | -0.0929
AGCAGGTC | -0.108
ACTAAAAC | 0.0254
CCTACTAC | 0.0299
GCGCGCAA | 0.372
CCATAGAG | -0.0933
ACGATACA | -0.0978
AGCAGACG | 0.0183
CCTATAAG | -0.2
AGATTAAC | -0.0206
AAGACTGA | -0.119
GAATACGA | -0.0618
ACTGTTTG | -0.0784
CGTGGCTA | -0.131

Study 5
Target: Prothrombin, mature alpha-thrombin (F2, Homo sapiens, UniProt P00734)
Technique: aptamer microarray, sandwich
Form: DNA with 2'F-ANA
Matrix: in vitro
Concentration: 200 nM
Setting: whole 15-mer aptamer, many near background
With: Cy3 exosite-II aptamer, 400 nM
Reading: higher = stronger binding
Sequence: GGTTGGTGTGGTTGG
Modification | mean fluorescence intensity [a.u.]
2'F-ANA at 1 2 3 8 10 13 14 | 61.2
2'F-ANA at 5 8 9 10 12 14 15 | 46.8
2'F-ANA at 3 4 5 6 9 11 13 | 62.4
2'F-ANA at 1 4 6 10 13 14 15 | 138
2'F-ANA at 3 4 7 8 9 11 12 13 14 15 | 366
2'F-ANA at 4 6 7 9 11 12 14 15 | 80.8
2'F-ANA at 1 2 3 5 6 7 8 11 13 14 | 47.5
2'F-ANA at 3 9 10 11 13 14 15 | 381
2'F-ANA at 1 4 5 8 9 11 12 14 | 50.7
2'F-ANA at 1 2 4 8 9 10 11 13 | 49.1
2'F-ANA at 1 2 3 4 5 7 13 | 72.1
2'F-ANA at 2 3 4 5 6 8 13 14 | 49.2
2'F-ANA at 1 4 5 8 9 11 13 15 | 194
2'F-ANA at 1 2 5 7 9 10 13 14 | 46.2
2'F-ANA at 5 6 9 10 11 13 15 | 45.9
2'F-ANA at 3 5 7 8 9 11 14 15 | 62.3
2'F-ANA at 2 3 4 6 7 8 10 14 15 | 150
2'F-ANA at 2 4 5 7 9 11 14 15 | 50.3
